Assay results pooled from the literature.
Parts stem from different laboratories: compare values within a part only. Changes are numbered by the printed parent chain.
Chain of UniProt P41143 (whole entry, looked up): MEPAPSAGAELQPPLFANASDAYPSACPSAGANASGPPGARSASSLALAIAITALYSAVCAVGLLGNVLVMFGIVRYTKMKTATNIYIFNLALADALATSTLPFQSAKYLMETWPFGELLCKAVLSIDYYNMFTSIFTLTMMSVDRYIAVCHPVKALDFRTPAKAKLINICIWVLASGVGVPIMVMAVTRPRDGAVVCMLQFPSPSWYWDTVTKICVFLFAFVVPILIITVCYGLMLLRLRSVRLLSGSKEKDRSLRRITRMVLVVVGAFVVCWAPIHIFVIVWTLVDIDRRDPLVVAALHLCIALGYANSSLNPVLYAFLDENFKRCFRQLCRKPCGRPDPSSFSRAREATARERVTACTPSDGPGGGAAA

Set 1
Target: UBE2D3 UBC core domain (UniProt P61077)
Technique: yeast two-hybrid
Medium: yeast
Notes: mostly zero background
Reference: not given
Direction: higher = stronger interaction
B1: CNOT4 RING domain (UniProt O95628); chain MSRSPDAKEDPVECPLCMEPLEIDDINFFPCTCGYQICRFCWHRIRTDENGLCPACRKPYPED
B2: MKRN3 RING domain (UniProt Q13064); chain FAVQRGMDKVCGICMEVVYEKANPNDRRFGILSNCNHSFCIRCIRRWRSARQFENRIVKSCPQCRVTSELVIPSE
B3: BFAR RING domain (UniProt Q9NZS9); chain GPQISVSEFSCHCCYDILVNPTTLNCGHSFCRHCLALWWASSKKTECPECREKWEGFPKVS
B4: VPS8 RING domain (UniProt Q8N3P4); chain TRGLNPKQDYCSICLQQYKRRQEMADEIIVFSCGHLYHSFCLQNKECTVEFEGQTRWTCYKCSSSNKVGKLSE
B5: RNF186 RING domain (UniProt Q9NXI6); chain HSGSTECDLECLVCREPYSCPRLPKLLACQHAFCAICLKLLLCVQDNTWSITCPLCRKVTAVPGGLI
Construct (chain): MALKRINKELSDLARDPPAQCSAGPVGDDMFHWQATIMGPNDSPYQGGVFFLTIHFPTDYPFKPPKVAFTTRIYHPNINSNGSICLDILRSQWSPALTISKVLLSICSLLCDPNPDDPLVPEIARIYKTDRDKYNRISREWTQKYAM
`LEALSSDFLACKICLEQLRAPKTLPCLHTYCQDCLAQLADGGRVRCPECRETVPVPPEGV (TRIM56 RING domain (UniProt Q9BRZ2))` — result for “lacZ reporter activity”: 0.
`B1 (CNOT4 RING domain)`: “lacZ reporter activity” 15000.
For `DDVLTKDAGECVICLEELLQGDTIARLPCLCIYHKSCIDSWFEVNRSCPEHPAD (ZNRF1 RING domain (UniProt Q8ND25))`, “lacZ reporter activity” read 13300.
`FAEQPSVKLCCQLCCSVFKDPVITTCGHTFCRRCALKSEKCPVDNVKLTVVVNNI (TRAF7 RING domain (UniProt Q6Q0C0))`: “lacZ reporter activity” 0.
Under “lacZ reporter activity”, `B2 (MKRN3 RING domain)` is recorded as 0.
`B3 (BFAR RING domain)`: “lacZ reporter activity” 0.
`B4 (VPS8 RING domain)`: “lacZ reporter activity” 0.
For `B5 (RNF186 RING domain)`, “lacZ reporter activity” read 8330.

Set 2
Target: CCND3, cyclin fold, Cln2 fusion (human)
Technique: yeast growth competition, sequencing
Medium: yeast
Notes: weak parent motif
Reference: not given
Direction: higher = stronger binding
Starting sequence: viral docking peptide; YKVKRRLVFGADD
For `K2W`, “normalised enrichment score” read 0.366.
For `K2R`, “normalised enrichment score” read 0.0852.
`D12K`: “normalised enrichment score” -0.136.
Under “normalised enrichment score”, `G10D` is recorded as 0.731.
`G10K` — result for “normalised enrichment score”: 0.226.
Under “normalised enrichment score”, `K2E` is recorded as 0.204.
For `L7W`, “normalised enrichment score” read -0.0462.
`A11P`: “normalised enrichment score” 0.306.

Set 3
Target: HLA class I histocompatibility antigen, A alpha chain, allele A*25:01 (Homo sapiens, UniProt P04439)
Effect on: peptide-MHC binding
Molecule type: peptide
Tested at: concentration not given
Under binding, `FMSRKLHRY` is recorded as “inactive”.
`SKLRALLTL` — result for binding: “inactive”.
For `FPHTELANL`, binding read “inactive”.
Under binding, `YSDNEMLTH` is recorded as “inactive”.
For `RSLVCLAPK`, binding read “inactive”.
`AENCYNLEI` — result for binding: “inactive”.
`LEGLADAIW`: binding “inactive”.
Under binding, `DEEAINLFH` is recorded as “inactive”.

Other studies, line by line
For `CC(=O)Nc1c(F)cc(C(=O)N[C@H]2CC[C@H](O)CC2)cc1O[C@@H](C)c1ccccc1`, the inhibition was 27.1% (Delta-type opioid receptor (OPRD1, Homo sapiens, UniProt P41143); binding, radioligand binding; 10 µM).

A few entries again (set 1):
`LEALSSDFLACKICLEQLRAPKTLPCLHTYCQDCLAQLADGGRVRCPECRETVPVPPEGV (TRIM56 RING domain (UniProt Q9BRZ2))` — result for “lacZ reporter activity”: 0.
